Measurements gathered from unrelated publications.
Lines come from different studies, so protocols differ. “And” joins repeats or separate records; there may be more than shown. ± marks the error that the study gave. In brackets after ≈: the same amount, converted by molar mass.
Organism: Mycobacterium tuberculosis

COc1cc(/C=N/NC(=O)c2ccncc2)ccc1OC(=O)CN1C(=O)CSC1=O
MIC (microbial growth, resazurin; H37RV): 149 µM

Cc1c(-c2ccc(N3CCCCC3)cc2)[nH]c2cc(F)cc(F)c2c1=O
kill rate (time-kill; H37Rv; concentration not given, 7 days): 0.05 h⁻¹

CCc1nc2ccccn2c1C(=O)NCc1ccc2oc(-c3ccc(OC(F)(F)F)cc3)nc2c1
MIC90 (microbial growth; H37RV): > 25 µM

NNC(=O)c1ccncc1.O=C(CN1C(=O)CSC1=O)Oc1ccc(C=NNC(=O)c2ccncc2)cc1Cl
FICI (two-drug checkerboard; H37Rv; concentration not given, unit not given; lower means more synergy): 0.737

COc1ccc(-c2nc(-c3cccc(NC(=O)Cc4ccc(F)cc4)c3)no2)cc1OC
IC50 (bacterial growth, inhibitor; mmpL3-TetON): 180 nM

Cc1ccccc1/C=C/C(=O)N[C@@H](CO)C(=O)N[C@H](C(=O)N[C@H](Cc1ccccc1)C(=O)N[C@@H]1C(=O)N2[C@@H](CC(=O)O)C(=O)Nc3ccccc3[C@@]2(O)[C@@H]1O)[C@@H](C)O
MIC50 (mc2 6230; 5 days, 37 °C): inactive

O=C(NC12CC3CC(CC(C3)C1)C2)c1cc2cc(Cl)ccc2[nH]1
IC50 (bacterial growth, inhibitor; mmpL3-TetON): 20 nM

NC(=O)c1cc(-c2ccoc2)ccc1OCCc1cccc(F)c1
IC90 (growth; H37Rv-LP; 120 h): 410 ± 230 nM

Cc1cc(Oc2nc(N3CC[C@@H](c4ccncc4)C3)ncc2F)[nH]n1
normalised growth (OD; H37Rv PurF CRISPRi knockdown; 0.125 µM, with: anhydrotetracycline low): 2% and 3% and 1%

Cc1nc2cc(OC(F)(F)F)ccn2c1C(=O)NCc1ccc2oc(-c3ccc(OC(F)(F)F)cc3)nc2c1
MIC90 (microbial growth; H37RV): > 10 µM

CCC(CO)NCCNC(CC)CO.O=C(CN1C(=O)CSC1=O)Oc1ccc(C=NNC(=O)c2ccncc2)cc1Br
FICI (two-drug checkerboard; H37Rv; concentration not given, unit not given; lower means more synergy): 0.6

Nc1c2c(nc3sc4c(c13)CCCCC4)CCCC2
MIC50 (microbial growth): 1700 µM (≈ 463 µg/mL)

Cc1ccc(C2CC(C(F)(F)F)n3ncc(C(=O)NCc4ccc5c(c4)OCO5)c3N2)cc1 (stereo not shown)
IC50 (microbial growth): 330 nM

C#CCN(Cc1ccc2[nH]c(C)nc(=O)c2c1)c1ccc(C(=O)N[C@@H](CCC(=O)O)C(=O)O)cc1
MIC90 (bacterial growth, inhibitor; H37Rv pptT conditional knockdown; PptT depleted, ATc withheld): > 100 µM

O=C(CN1C(=O)CSC1=O)Oc1ccc(/C=N/NC(=O)c2ccncc2)cc1
MIC (microbial growth, resazurin; H37RV): 0.078 µM

O=C(Nc1ccc(F)c(F)c1F)NC12CC3CC(CC(C3)C1)C2
IC50 (bacterial growth, inhibitor; mmpL3-TetON): 10 nM

COc1ccccc1-c1ccc(OCCc2cccc(F)c2)c(C(N)=O)c1
selectivity index (H37Rv-LP; reference: HepG2 CC50 over Mtb IC90): > 1

CCC(CO)NCCNC(CC)CO.CCOc1cc(C=NNC(=O)c2ccncc2)ccc1OC(=O)CN1C(=O)CSC1=O
FICI (two-drug checkerboard; H37Rv; concentration not given, unit not given; lower means more synergy): 2

COc1ccc2ncc(F)c(C[C@H](O)[C@H]3OC[C@H](NCc4ccc5c(n4)NC(=O)CO5)CO3)c2c1
FIC index (growth inhibition, checkerboard; H37Rv; with: bedaquiline): 1

NNC(=O)c1ccncc1.O=C(CN1C(=O)CSC1=O)Oc1ccc(/C=N/NC(=O)c2ccccn2)cc1Br
MIC (growth in combination; H37Rv; with: reference drug at 1/2 MIC): 0.0156 µg/mL

C#CCN(Cc1ccc2nc(C)[nH]c(=O)c2c1)c1ccc(C(=O)N[C@@H](CCC(=O)OC)C(=O)OC)cc1
MIC90 (bacterial growth, inhibitor; H37Rv wild type): > 100 µM

COc1ccc(-c2ccc(Nc3cccc(S(=O)(=O)CCNCCc4cccs4)c3)nc2)cn1
IC50 (microbial growth): 27900 nM

Cc1ccn2c(C(=O)NCc3ccccc3)c(C)nc2c1
MIC (optical density; H37Rv; 144 h): 2.5 µM

COc1ccc(-c2ccc(OCCc3cccc(F)c3)c(C(N)=O)c2)cn1
IC90 (growth; H37Rv-LP; 120 h): > 100000 nM

CCc1nc2cc(OC(F)(F)F)ccn2c1C(=O)NCc1ccc2oc(-c3ccc(OC(F)(F)F)cc3)nc2c1
MIC90 (microbial growth; H37RV): > 25 µM

COc1ccc(CCNC(=O)C2(n3cnnn3)CCCCC2)cc1
IC50 (microbial growth): 2120 nM

NC(=S)N/N=C/c1ccc(OC(=O)/C=C2\SC(=O)NC2=O)cc1
MIC (microbial growth, resazurin; H37RV): 2.85 µM

CCN(Cc1ccc2c(c1)OCO2)C(=O)CSc1nc(NC)c2ccccc2n1
IC50 (bacterial growth, inhibitor; mmpL3-TetON): 3560 nM

CCc1nc2cc(C(F)(F)F)ccn2c1C(=O)NCc1ccc2oc(-c3ccc(Cl)cc3)nc2c1
MIC90 (microbial growth; H37RV): > 25 µM

NC(=O)c1cc(-c2ccco2)ccc1OCCc1cccc(F)c1
selectivity index (H37Rv-LP; reference: HepG2 CC50 over Mtb IC90): 71

CCc1nc2cc(Br)ccn2c1C(=O)NCc1ccc2oc(-c3ccc(Cl)cc3)nc2c1
MIC90 (microbial growth; H37RV): > 10 µM

Cc1ccc2nc(C(F)(F)F)c(C(=O)NCc3ccc4c(c3)OCO4)n2c1
IC50 (microbial growth): 3920 nM

CCC(CO)NCCNC(CC)CO.CCOc1cc(C=NNC(=S)Nc2cccc(Cl)c2)ccc1OC(=O)CN1C(=O)CSC1=O
MIC (growth in combination; H37Rv; with: reference drug at 1/2 MIC): 0.5 µg/mL

CCc1nc2ccc(C(F)(F)F)cn2c1C(=O)NCc1ccc2oc(-c3ccc(Cl)cc3)nc2c1
MIC90 (microbial growth; H37RV): > 10 µM

Excerpt of the above:
NNC(=O)c1ccncc1.O=C(CN1C(=O)CSC1=O)Oc1ccc(C=NNC(=O)c2ccncc2)cc1Cl
FICI (two-drug checkerboard; H37Rv; concentration not given, unit not given; lower means more synergy): 0.737

COc1ccc(-c2nc(-c3cccc(NC(=O)Cc4ccc(F)cc4)c3)no2)cc1OC
IC50 (bacterial growth, inhibitor; mmpL3-TetON): 180 nM

Cc1ccccc1/C=C/C(=O)N[C@@H](CO)C(=O)N[C@H](C(=O)N[C@H](Cc1ccccc1)C(=O)N[C@@H]1C(=O)N2[C@@H](CC(=O)O)C(=O)Nc3ccccc3[C@@]2(O)[C@@H]1O)[C@@H](C)O
MIC50 (mc2 6230; 5 days, 37 °C): inactive

O=C(NC12CC3CC(CC(C3)C1)C2)c1cc2cc(Cl)ccc2[nH]1
IC50 (bacterial growth, inhibitor; mmpL3-TetON): 20 nM

NC(=O)c1cc(-c2ccoc2)ccc1OCCc1cccc(F)c1
IC90 (growth; H37Rv-LP; 120 h): 410 ± 230 nM
